Results collected from several papers.
Lines come from different studies, so protocols differ. ± marks the error that the study gave.
Cell line: A549

Nc1nccc(-n2cc(C(=O)N[C@@H]3CCNC3)c3ccc(C#CC4(O)CCCCC4)cc32)n1
cell migration (wound-healing; 5 µM): 63%

CC(=O)Oc1ccc(/C=C\C(=O)Nc2ccc(S(N)(=O)=O)cc2)cc1OC(C)=O
protective concentration (cell viability, MTT; 24 h pretreatment, added: H2O2 800 µM for 4 h): ≤ 50 µM

Cn1c(=O)n(-c2ccc(C(C)(C)C#N)cc2)c2c3cc(-c4cnc5ccccc5c4)ccc3ncc21
EC50 (SQ/TQ site phosphorylation, phosphoproteomics): 0.025 to 0.19 µM

CSVTCR
adherent cells (peptide; 2 µg coated per well, 30 to 60 min; reference: thrombospondin-coated wells): 90%

CC(=NN=C(N)[S-])C(C)=NN=C(N)[S-].O=[N+]([O-])[O-].[Co+3].c1c[nH]cn1.c1c[nH]cn1
IC50 (cell viability, MTT; 24 h hypoxic, 48 h normoxic, hypoxic treatment): > 500 µM

CSTSCR
adherent cells (peptide; 2 µg coated per well, 30 to 60 min; reference: thrombospondin-coated wells): 104%

NC(=O)Cn1cc(COc2ccccc2-c2nc(-c3ccccc3)no2)nn1
mRNA level (qPCR, item: TP53; concentration not given, 24 h; reference: untreated): 6.5 ± 0.05 fold

Nc1nccc(-n2cc(C(=O)N3CC[C@H](N)C3)c3ccc(C#CC4(O)CCCCC4)cc32)n1
cell migration (wound-healing; 5 µM): 63%

O=C(Cn1cc(COc2ccccc2-c2nc(Cc3ccccc3)no2)nn1)NNC(=S)Nc1ccccc1
mRNA level (qPCR, item: PI3K; IC50, 24 h; reference: untreated cancer cells): 0.36 ± 0.005 fold

Nc1nccc(-n2cc(C(=O)N3CCC[C@@H](N)C3)c3ccc(C#CC4(O)CCCCC4)cc32)n1
cell migration (wound-healing; 5 µM): 57%

Cc1cc(C)c(C2CN(C)C3(C(=O)Nc4ccccc43)C2C(=O)c2ccc(F)cc2)c(C)c1 (stereo not drawn)
IC50 (cell growth or viability, MTT; 24 h): 9.02 µM

NC(=O)Cn1cc(COc2ccccc2-c2nc(Cc3ccccc3)no2)nn1
mRNA level (qPCR, item: PI3K; IC50, 24 h; reference: untreated cancer cells): 0.24 ± 0.03 fold

O=[N+]([O-])c1ccc(/C=C/c2nc3ccc([N+](=O)[O-])cc3nc2/C=C/c2ccc([N+](=O)[O-])cc2)cc1
IC50 (cell growth or viability, MTT; 72 h): > 100 µM

Cc1cc(C)c(C2C3CCCN3C3(C(=O)Nc4ccccc43)C2C(=O)c2ccccc2)c(C)c1 (stereo not drawn)
IC50 (cell growth or viability, MTT; 48 h): 10.8 µM

COc1cccc2c1C(=O)c1c(O)c3c(c(O)c1C2=O)C[C@@](O)(C(=O)CO)C[C@@H]3O[C@H]1C[C@H](N)[C@H](O)[C@H](C)O1
mRNA level (qPCR, item: PI3K; IC50, 24 h; reference: untreated cancer cells): 0.1 ± 0.008 fold

Cc1cc(C)c(C2CN(C)C3(C(=O)Nc4ccccc43)C2C(=O)c2cccc(Cl)c2)c(C)c1 (stereo not drawn)
IC50 (cell growth or viability, MTT; 24 h): > 100 µM

COCCNc1nc2ccc(C#CC3(O)CCCCC3)cc2n1-c1ccnc(N)n1
cell migration (wound-healing; 5 µM): 62%

CC[C@@]1(O)C(=O)OCc2c1cc1n(c2=O)Cc2cc3ccccc3nc2-1
Hill slope (cytotoxicity, MTT; 48 h): -0.692

COc1cc(/C=C/C(=O)/C=C/c2cc(OC)c(OC)c(OC)c2)cc(OC)c1OC
GI50 (cell growth or viability, SRB; 48 h): 0.53 µM

Nc1nccc(-n2cc(C(=O)N3CCC[C@@H](O)C3)c3ccc(C#CC4(O)CCCCC4)cc32)n1
cell migration (wound-healing; 5 µM): 54%

CC(C=NN=C(N)[S-])=NN=C(N)[S-].N.N.O=[N+]([O-])[O-].[Co+3]
IC50 (cell viability, MTT; 24 h hypoxic, 48 h normoxic, hypoxic treatment): ~21.8 µM

Nc1nccc(-n2cc(C(=O)N3CCC(N)CC3)c3ccc(C#CC4(O)CCCCC4)cc32)n1
cell migration (wound-healing; 5 µM): 56%

ANKHYF
adherent cells (peptide; 2 µg coated per well, 30 to 60 min; reference: thrombospondin-coated wells): 10%

Cc1cc(C)c(C2CN(C)C3(C(=O)Nc4ccccc43)C2C(=O)c2ccc(Br)cc2)c(C)c1 (stereo not drawn)
IC50 (cell growth or viability, MTT; 24 h): 33.5 µM

CO/C1=C\C(C)=C\[C@@H](C)[C@@H](O)[C@@H](C)C/C(C)=C/C=C/[C@H](OC)[C@@H]([C@@H](C)[C@@H](O)[C@H](C)[C@@]2(O)C[C@@H](O)[C@H](C)[C@@H](C(C)C)O2)OC1=O
cell surface pH (fluorescein-WGA ratio imaging; concentration not given, 37 °C, medium pH 7.4): 8.9 ± 0.12

Cc1cc(C)c(C2C3CCCN3C3(C(=O)Nc4ccccc43)C2C(=O)c2ccc(Br)cc2)c(C)c1 (stereo not drawn)
IC50 (cell growth or viability, MTT; 24 h): 55.6 µM

NS(=O)(=O)c1ccc(NC(=O)/C=C\c2ccc(O)c(O)c2)cc1
catalase activity (6.25 µM, 24 h pretreatment, added: 800 µM H2O2 for 4 h; reference: H2O2 alone): increased

NNC(=O)Cn1cc(COc2ccccc2-c2nc(-c3ccccc3)no2)nn1
mRNA level (qPCR, item: EGFR; IC50, 24 h; reference: untreated cancer cells): 0.26 ± 0.03 fold

COc1cnc(NS(=O)(=O)c2ccc(NC(=O)/C=C\c3ccc(OC(C)=O)c(OC(C)=O)c3)cc2)nc1
protective concentration (cell viability, MTT; 24 h pretreatment, added: H2O2 800 µM for 4 h): ≤ 100 µM

C=CCc1ccc(O)c(-c2ccc(O)c(CC=C)c2)c1
IC50 (cell proliferation, MTS; 72 h, added: 10 µM BLM): 5.01 µM

For quick reference, copied from above:
Nc1nccc(-n2cc(C(=O)N3CC[C@H](N)C3)c3ccc(C#CC4(O)CCCCC4)cc32)n1
cell migration (wound-healing; 5 µM): 63%

O=C(Cn1cc(COc2ccccc2-c2nc(Cc3ccccc3)no2)nn1)NNC(=S)Nc1ccccc1
mRNA level (qPCR, item: PI3K; IC50, 24 h; reference: untreated cancer cells): 0.36 ± 0.005 fold

Nc1nccc(-n2cc(C(=O)N3CCC[C@@H](N)C3)c3ccc(C#CC4(O)CCCCC4)cc32)n1
cell migration (wound-healing; 5 µM): 57%

Cc1cc(C)c(C2CN(C)C3(C(=O)Nc4ccccc43)C2C(=O)c2ccc(F)cc2)c(C)c1 (stereo not drawn)
IC50 (cell growth or viability, MTT; 24 h): 9.02 µM
